Results from different studies.
Protocols differ between the studies behind these lines.
Cell line: THP-1

SMILES | test | conditions | endpoint | result
CCOc1cncc(-c2ccc(NC(=O)C3(c4ccnc(NS(=O)(=O)C5CC5)n4)CCOCC3)nc2)n1 | cell proliferation, CellTiter-Glo | 72 h | IC50 | 44 nM
CC(C)c1ccc(N(C)c2ccc3c(c2)OCC[C@H]3CNc2cnccc2C(=O)O)cc1 | cell growth or viability, ATP luminescence | 7 days | IC50 | 6.15 nM
CCN(C(=O)c1cc(F)ccc1Oc1nncnc1N1CCC2(C1)CN([C@H](CCCN(C)CCOC)C(C)C)C2)C(C)C | cell growth or viability | 7 days | GI50 | > 10000 nM
CN1CC[C@@H](COc2cnc(C#N)cc2-c2ccn3nc(NC(=O)C4CC4)cc3c2)C1 | nuclear translocation, refers to: CRTC3 | median of experiments | EC50 | 1720 nM
C/C(=N\NC(=O)c1cccc(S(=O)(=O)N2CCOCC2)c1)c1cc(Cl)ccc1O | differentiation, flow cytometry, refers to: CD11b | 96 h | EC50 | > 2000 nM
CNS(=O)(=O)Nc1nccc(Cc2c(C)c3ccc(Oc4ncccc4F)cc3oc2=O)c1F | cell viability | 7 days | IC50 | 4.31 nM
O=S(=O)(c1ccc2c(c1)OCO2)n1cc(CCCCN2CCC(=C(c3ccc(F)c(F)c3)c3ccc(F)c(F)c3)CC2)nn1 | Seahorse | concentration not given | extracellular acidification rate | increased
O=c1c(-c2cnn(-c3ccccc3)c2)c(C(F)(F)F)oc2c(O)c(O)ccc12 | apoptosis, annexin V flow cytometry |  | EC50 | ~14000 nM

Repeated from above:
SMILES | test | conditions | endpoint | result
CCN(C(=O)c1cc(F)ccc1Oc1nncnc1N1CCC2(C1)CN([C@H](CCCN(C)CCOC)C(C)C)C2)C(C)C | cell growth or viability | 7 days | GI50 | > 10000 nM
